Published values gathered from unrelated publications.
± marks the error that the study gave.
CYP2B6: Cytochrome P450 2B6 (CYP2B6, Homo sapiens, UniProt P20813)
Sequence of UniProt P20813 (whole entry, looked up): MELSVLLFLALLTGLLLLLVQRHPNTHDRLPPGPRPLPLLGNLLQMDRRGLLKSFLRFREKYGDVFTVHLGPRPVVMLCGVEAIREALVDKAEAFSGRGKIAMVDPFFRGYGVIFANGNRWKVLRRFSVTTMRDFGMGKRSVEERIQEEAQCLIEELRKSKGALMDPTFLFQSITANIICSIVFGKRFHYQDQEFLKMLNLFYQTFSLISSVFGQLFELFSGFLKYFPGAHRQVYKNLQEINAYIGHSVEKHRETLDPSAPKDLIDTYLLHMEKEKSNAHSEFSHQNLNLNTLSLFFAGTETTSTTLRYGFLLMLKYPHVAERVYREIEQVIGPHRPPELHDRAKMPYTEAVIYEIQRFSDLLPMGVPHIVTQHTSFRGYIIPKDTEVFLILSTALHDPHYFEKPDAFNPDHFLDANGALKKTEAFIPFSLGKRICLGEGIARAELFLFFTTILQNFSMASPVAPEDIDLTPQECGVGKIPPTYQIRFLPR
NA: Neuraminidase (NA, Influenza A virus, UniProt P03468)
Sequence of UniProt P03468 (whole entry, looked up): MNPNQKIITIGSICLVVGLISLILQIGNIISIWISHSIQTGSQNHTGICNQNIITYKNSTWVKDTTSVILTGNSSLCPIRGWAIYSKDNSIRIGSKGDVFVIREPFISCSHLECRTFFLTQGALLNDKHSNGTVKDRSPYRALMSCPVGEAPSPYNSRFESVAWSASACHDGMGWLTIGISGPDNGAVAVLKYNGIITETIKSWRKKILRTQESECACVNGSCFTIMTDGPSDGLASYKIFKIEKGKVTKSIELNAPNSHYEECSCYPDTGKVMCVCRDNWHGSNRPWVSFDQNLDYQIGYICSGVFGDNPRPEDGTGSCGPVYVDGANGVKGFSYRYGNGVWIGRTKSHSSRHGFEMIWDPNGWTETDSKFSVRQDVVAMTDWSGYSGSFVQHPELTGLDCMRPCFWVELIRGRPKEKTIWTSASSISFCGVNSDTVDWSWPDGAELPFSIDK
Genome polyprotein protease: Genome polyprotein, protease (Enterovirus A71, UniProt Q66478)
Sequence of UniProt Q66478 (whole entry, looked up): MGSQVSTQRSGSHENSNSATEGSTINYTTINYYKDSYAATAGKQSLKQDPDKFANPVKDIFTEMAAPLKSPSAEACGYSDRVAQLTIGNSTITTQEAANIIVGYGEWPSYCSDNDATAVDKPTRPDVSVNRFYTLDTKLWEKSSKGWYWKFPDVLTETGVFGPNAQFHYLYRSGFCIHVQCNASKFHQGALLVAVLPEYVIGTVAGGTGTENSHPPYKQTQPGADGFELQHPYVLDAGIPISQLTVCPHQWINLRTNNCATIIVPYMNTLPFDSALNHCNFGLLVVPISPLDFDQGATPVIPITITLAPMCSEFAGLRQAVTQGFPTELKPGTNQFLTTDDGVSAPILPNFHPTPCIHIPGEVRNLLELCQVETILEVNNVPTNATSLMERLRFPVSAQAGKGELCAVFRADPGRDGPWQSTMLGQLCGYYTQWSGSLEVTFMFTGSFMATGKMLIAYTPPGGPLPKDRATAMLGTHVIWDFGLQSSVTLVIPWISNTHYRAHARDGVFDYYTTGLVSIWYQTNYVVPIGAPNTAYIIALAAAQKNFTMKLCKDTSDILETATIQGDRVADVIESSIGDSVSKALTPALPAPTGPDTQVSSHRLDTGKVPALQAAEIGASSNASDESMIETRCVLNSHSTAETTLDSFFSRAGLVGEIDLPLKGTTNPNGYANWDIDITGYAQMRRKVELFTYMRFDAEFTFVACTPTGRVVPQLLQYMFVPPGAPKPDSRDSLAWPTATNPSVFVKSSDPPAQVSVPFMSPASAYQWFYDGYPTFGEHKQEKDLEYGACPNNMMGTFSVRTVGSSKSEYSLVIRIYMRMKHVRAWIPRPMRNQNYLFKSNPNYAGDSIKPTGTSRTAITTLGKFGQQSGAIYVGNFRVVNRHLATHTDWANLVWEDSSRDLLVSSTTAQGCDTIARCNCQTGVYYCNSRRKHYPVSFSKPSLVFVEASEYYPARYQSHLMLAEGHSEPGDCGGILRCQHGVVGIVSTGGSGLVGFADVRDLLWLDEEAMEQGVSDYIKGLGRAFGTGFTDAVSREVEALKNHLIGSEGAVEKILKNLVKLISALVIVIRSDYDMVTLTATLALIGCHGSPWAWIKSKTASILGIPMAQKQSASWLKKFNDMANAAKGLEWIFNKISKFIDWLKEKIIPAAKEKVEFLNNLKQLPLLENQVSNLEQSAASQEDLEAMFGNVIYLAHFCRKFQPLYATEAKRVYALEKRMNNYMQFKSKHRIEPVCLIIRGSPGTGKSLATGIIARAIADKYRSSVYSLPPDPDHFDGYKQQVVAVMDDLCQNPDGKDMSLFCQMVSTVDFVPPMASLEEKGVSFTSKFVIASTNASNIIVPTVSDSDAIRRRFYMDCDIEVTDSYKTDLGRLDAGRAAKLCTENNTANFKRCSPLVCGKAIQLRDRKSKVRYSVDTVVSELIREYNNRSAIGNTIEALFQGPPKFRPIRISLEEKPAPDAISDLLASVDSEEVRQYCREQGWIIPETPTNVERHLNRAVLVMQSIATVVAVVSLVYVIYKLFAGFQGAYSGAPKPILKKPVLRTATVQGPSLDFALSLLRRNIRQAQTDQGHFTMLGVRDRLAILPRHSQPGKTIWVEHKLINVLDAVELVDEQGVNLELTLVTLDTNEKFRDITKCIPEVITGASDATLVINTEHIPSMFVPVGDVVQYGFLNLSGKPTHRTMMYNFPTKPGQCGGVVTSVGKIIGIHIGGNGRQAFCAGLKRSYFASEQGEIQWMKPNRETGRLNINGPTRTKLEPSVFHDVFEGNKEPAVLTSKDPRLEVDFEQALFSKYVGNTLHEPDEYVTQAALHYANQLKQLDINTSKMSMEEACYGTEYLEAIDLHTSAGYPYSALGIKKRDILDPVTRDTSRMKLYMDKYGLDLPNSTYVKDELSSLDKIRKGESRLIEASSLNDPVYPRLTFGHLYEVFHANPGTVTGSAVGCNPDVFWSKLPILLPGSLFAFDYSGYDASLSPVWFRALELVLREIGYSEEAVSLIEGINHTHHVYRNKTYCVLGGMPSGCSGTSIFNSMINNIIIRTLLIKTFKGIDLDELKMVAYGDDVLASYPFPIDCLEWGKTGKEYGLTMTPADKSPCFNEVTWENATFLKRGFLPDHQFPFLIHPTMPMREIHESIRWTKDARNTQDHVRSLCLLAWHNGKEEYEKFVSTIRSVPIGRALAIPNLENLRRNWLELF
murE: UDP-N-acetylmuramoyl-L-alanyl-D-glutamate--2,6-diaminopimelate ligase (murE, Mycobacterium tuberculosis, UniProt P9WJL3)
Sequence of UniProt P9WJL3 (whole entry, looked up): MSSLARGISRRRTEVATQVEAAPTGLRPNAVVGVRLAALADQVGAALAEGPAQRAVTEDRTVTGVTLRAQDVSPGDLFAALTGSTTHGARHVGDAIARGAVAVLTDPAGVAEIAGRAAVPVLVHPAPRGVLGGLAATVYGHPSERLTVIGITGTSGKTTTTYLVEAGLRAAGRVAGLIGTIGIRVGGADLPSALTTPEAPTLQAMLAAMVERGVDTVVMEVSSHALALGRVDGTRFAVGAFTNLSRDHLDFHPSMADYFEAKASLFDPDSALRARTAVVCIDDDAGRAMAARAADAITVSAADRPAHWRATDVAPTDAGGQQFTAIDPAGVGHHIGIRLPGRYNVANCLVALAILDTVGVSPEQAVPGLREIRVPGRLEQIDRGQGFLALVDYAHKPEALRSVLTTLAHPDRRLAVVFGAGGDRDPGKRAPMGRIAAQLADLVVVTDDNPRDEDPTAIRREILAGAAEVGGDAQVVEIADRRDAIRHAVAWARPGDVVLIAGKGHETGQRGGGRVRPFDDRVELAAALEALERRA
Sequence of UniProt P9WPC9 (whole entry, looked up): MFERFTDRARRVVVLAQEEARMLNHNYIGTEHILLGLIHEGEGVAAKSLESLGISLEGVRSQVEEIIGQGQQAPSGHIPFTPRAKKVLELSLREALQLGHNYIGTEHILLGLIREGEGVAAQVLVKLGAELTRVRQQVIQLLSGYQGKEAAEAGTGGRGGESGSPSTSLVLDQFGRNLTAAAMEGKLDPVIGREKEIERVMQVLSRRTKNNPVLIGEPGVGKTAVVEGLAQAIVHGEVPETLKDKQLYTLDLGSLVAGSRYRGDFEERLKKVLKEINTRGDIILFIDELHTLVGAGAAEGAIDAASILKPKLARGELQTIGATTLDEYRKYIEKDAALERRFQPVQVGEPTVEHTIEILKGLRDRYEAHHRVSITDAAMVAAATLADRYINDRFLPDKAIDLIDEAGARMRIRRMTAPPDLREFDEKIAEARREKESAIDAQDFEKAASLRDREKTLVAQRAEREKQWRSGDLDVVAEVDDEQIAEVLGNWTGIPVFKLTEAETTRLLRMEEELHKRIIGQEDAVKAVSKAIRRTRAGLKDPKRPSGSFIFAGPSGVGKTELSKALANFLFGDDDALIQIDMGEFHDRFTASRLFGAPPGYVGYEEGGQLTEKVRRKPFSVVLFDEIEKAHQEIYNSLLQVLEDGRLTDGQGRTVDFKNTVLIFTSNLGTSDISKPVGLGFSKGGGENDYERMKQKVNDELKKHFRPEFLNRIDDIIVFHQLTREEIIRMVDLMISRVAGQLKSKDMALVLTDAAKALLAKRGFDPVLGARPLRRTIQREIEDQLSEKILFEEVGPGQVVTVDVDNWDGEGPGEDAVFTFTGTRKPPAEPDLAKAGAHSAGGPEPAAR
Sequence of UniProt P9WNC1 (whole entry, looked up): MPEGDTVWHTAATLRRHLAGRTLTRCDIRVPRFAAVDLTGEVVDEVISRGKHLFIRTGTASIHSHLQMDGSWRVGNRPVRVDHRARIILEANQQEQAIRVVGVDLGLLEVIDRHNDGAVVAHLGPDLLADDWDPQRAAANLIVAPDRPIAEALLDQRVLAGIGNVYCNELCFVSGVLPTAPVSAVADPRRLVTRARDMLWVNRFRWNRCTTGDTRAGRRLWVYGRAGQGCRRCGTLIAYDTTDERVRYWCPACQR

SMILES | target | test | test system | setting | IC50 [µM]
C=CC(=O)NC(CC(=C)C)C(=O)N1CC(C(=O)NC(C(=O)NC)C(C)CC)C(c2cccc(C(F)(F)F)c2)C1 (stereo not shown) | Replicase polyprotein 1ab, main protease (rep, Human coronavirus 229E, UniProt P0C6X1) | enzyme activity, inhibitor |  |  | > 100
CCCCCc1cc(O)c2c(c1)OC(C)(C)C1CCC(CO)=CC21 (stereo not shown) | CYP2B6 | enzyme activity, inhibitor | microsomes from HEK293 cells | pH 7.4, unbound, fu,inc corrected, with: bupropion | 0.55 ± 0.26
O=C(/C=C/c1ccc(O)cc1)OC[C@@]1(O)CO[C@@H](O[C@H]2[C@H](Oc3ccc(/C=C/C(=O)c4ccc(O)cc4O)cc3)O[C@H](CO)[C@@H](O)[C@@H]2O)[C@@H]1O | NA | enzyme activity, inhibitor |  |  | 0.04
CCCCCc1cc(O)c2c(c1)OC(C)(C)C1CCC(C)=CC21 (single isomer, unassigned; (-)) | CYP2B6 | inhibitor | HEK cell microsomes | 30 min preincubation with NADPH | 18 ± 5
CC1=CC(C=C(Cl)c2ccc(C(=O)O)cc2)C2(C(=O)O)C=CC(CCOC(=O)c3ccc(Oc4ccccc4)cc3)CC2C1 (stereo not shown) | clpC1 (Mycobacterium tuberculosis, UniProt P9WPC9) | enzyme activity, inhibitor |  |  | 6
COc1cc(N2CCN(C)CC2)ccc1Nc1ncc2c(n1)N(C1CCC1)C(=O)N(c1c(C)cccc1C)C2 | SIK2 (Homo sapiens, UniProt Q9H0K1) | enzyme activity, inhibitor |  |  | 0.014
COc1ccc2c(c1)CCC1C2=NN(C(C)=O)C1c1cccc(I)c1 (stereo not shown) | Genome polyprotein protease | enzyme activity, inhibitor |  |  | 10.6
CCCCCCCC/C=C\CCCCc1cc(=O)c2ccccc2n1C | murE | enzyme activity, inhibitor, HPLC |  |  | 95
CC(C)C[C@H](N)C(=O)NCC(=O)N[C@H](C(=O)N[C@@H](C)C(=O)N1CCC[C@H]1C(=O)N[C@H](C(=O)N[C@@H](CCCCN)C(=O)N[C@@H](C)C(=O)N[C@@H](CCCCN)C(=O)N[C@@H](CCCNC(=N)N)C(=O)N[C@@H](CCCNC(=N)N)C(=O)N[C@H](C(=O)N[C@H](C(=O)N[C@@H](CCC(N)=O)C(=O)N[C@@H](CCCNC(=N)N)C(=O)N[C@@H](CCC(=O)O)C(=O)N[C@@H](CCCCN)C(=O)N[C@@H](CCCNC(=N)N)C(N)=O)C(C)C)C(C)C)[C@@H](C)O)C(C)C | Furin (FURIN, Homo sapiens, UniProt P09958) | enzyme activity, inhibitor, fluorescence |  | pH 7 | 1.6
CCCCCCCCC/C=C\CCCc1cc(=O)c2ccccc2n1C | murE | enzyme activity, inhibitor, HPLC |  |  | 159
C=CC(=O)N1CCN(c2cc(-c3ccc(C4CCC4)cc3)ncc2C(=O)N[C@H](Cc2ccccc2)C(=O)NC)C(C)C1 (stereo partly shown) | Replicase polyprotein 1ab, main protease (rep, Human coronavirus 229E, UniProt P0C6X1) | enzyme activity, inhibitor |  |  | > 100
COc1cc(/C=C/C(=O)CC(=O)/C=C/c2ccc(O)c(O)c2)ccc1O | NA | enzyme activity, inhibitor |  |  | 62.8
COc1cc(C[S+]([O-])c2nc3cccnc3s2)oc(=O)c1 (stereo not shown) | Genome polyprotein protease | enzyme activity, inhibitor |  |  | > 50
NC[C@@H](CC[C@H](N)C(=O)O)C[C@H]1O[C@@H](n2cnc3c(N)ncnc32)[C@H](O)[C@@H]1O | Replicase polyprotein 1ab, nsp10-nsp16 complex (rep, Human coronavirus 229E, UniProt P0C6X1) |  |  |  | 24 ± 3
C=CC(=O)NC(CC(=C)C)C(=O)N1CC(C(=O)NC(Cc2ccccc2)C(=O)NC)C(c2cccc(C(F)(F)F)c2)C1 (stereo not shown) | Replicase polyprotein 1ab, main protease (rep, Human coronavirus NL63, UniProt P0C6X5) | enzyme activity, inhibitor |  |  | > 100
Cc1cc(Oc2nc(N3CC[C@@H](c4ccncc4)C3)ncc2F)[nH]n1 | Amidophosphoribosyltransferase (purF, Mycobacterium tuberculosis, UniProt P9WHQ7) | enzyme activity, inhibitor |  |  | 0.001
O=C1Nc2ccccc2C12c1c([nH]c(=O)[nH]c1=O)Nc1[nH]c(=O)[nH]c(=O)c12 | Urease (Canavalia ensiformis, UniProt P07374) | enzyme activity, inhibitor, absorbance |  |  | 14.5
CCCCCc1cc(O)c2c(c1)OC(C)(C)C1CCC(C)=CC21 (single isomer, unassigned; (-)) | UGT2B4 (Homo sapiens, UniProt P06133) | enzyme activity, inhibitor | HEK293 | pH 7.4 | 11
C=CC(=O)NC(CC(=C)C)C(=O)N1CC(C(=O)NC(Cc2ccco2)C(=O)NC)C(c2cccc(C(F)(F)F)c2)C1 (stereo not shown) | Replicase polyprotein 1ab, main protease (rep, Human coronavirus 229E, UniProt P0C6X1) | enzyme activity, inhibitor |  |  | > 100
CCC[C@@H](C(=O)c1ccccc1)N1CCCC1 | SLC6A3 (Homo sapiens, UniProt Q01959) | transporter uptake, inhibitor, radiometric |  |  | 0.02
Clc1ccc(C2C(n3ccnc3)C(c3ccc(Br)cc3)=NN2c2ccc(Cl)c(Cl)c2)cc1 (stereo not shown) | Genome polyprotein protease | enzyme activity, inhibitor |  |  | 0.5
CCCCCc1cc(O)cc2c1Oc1cc(O)cc(C(=O)CCCC)c1C(=O)O2 | Endonuclease 8 2 (nei2, Mycobacterium tuberculosis, UniProt P9WNC1) | uracil DNA glycosylase activity, inhibitor, gel-based cleavage |  | with: uracil-containing ssDNA substrate | 41.8

Repeated from above:
SMILES | target | test | test system | setting | IC50 [µM]
Cc1cc(Oc2nc(N3CC[C@@H](c4ccncc4)C3)ncc2F)[nH]n1 | Amidophosphoribosyltransferase (purF, Mycobacterium tuberculosis, UniProt P9WHQ7) | enzyme activity, inhibitor |  |  | 0.001
COc1cc(/C=C/C(=O)CC(=O)/C=C/c2ccc(O)c(O)c2)ccc1O | NA | enzyme activity, inhibitor |  |  | 62.8
COc1cc(N2CCN(C)CC2)ccc1Nc1ncc2c(n1)N(C1CCC1)C(=O)N(c1c(C)cccc1C)C2 | SIK2 (Homo sapiens, UniProt Q9H0K1) | enzyme activity, inhibitor |  |  | 0.014
